Measurements pooled from the literature.
Protocols differ between the studies behind these lines. Several values in a cell are separate wells, animals, samples, runs or records. ± gives the spread as reported.

| SMILES | assay | system | setting | scale | endpoint | value |
| --- | --- | --- | --- | --- | --- | --- |
| O=C(Cc1ccc(Cl)c(Cl)c1)N1CCN(Cc2ccccc2)[C@@H]2COC[C@H](N3CCCC3)[C@H]21 (single isomer, unassigned) | antagonist | male C57BL/6 mice, serum | 3 mg/kg, 15 min, KOR target engagement, added: KOR agonist 30 mg/kg |  | serum prolactin | inhibited |
| CN[C@@H]1C[C@H]2O[C@@](C)([C@@H]1OC)n1c3ccccc3c3c4c(c5c6ccccc6n2c5c31)C(=O)NC4 | annexin V flow cytometry | pancreatic islet cells, mouse | 1 µM, 24 h |  | necrotic cells | 0% |
| CCc1nnc(-c2c(OC)cc(-c3cnc4cc(-c5cnn(C)c5)ccn34)cc2OC)o1 | histomorphometry | male C57BL/6J mouse, tibia | oral gavage, 40 mg/kg once daily, 3 wk |  | trabecular bone volume fraction | 19.6 ± 3.35% |
| CC(C)C[C@@H]1NC(=O)[C@@H](Cc2c[nH]c3ccccc23)NC(=O)[C@H](CCCNC(=N)N)NC(=O)[C@@H](CCC(=O)O)NC(=O)[C@H](CCC(N)=O)NC(=O)[C@@H](CCC(=O)O)NC(=O)[C@H](CCCNC(=N)N)NC(=O)[C@@H](Cc2c[nH]c3ccccc23)NC1=O | Luminex, refers to: IL1a | LDLr-/- mice, Western diet, liver | dose not given, 4 weeks |  | cytokine level | 1100 ± 190 pg/g tissue |
| CC(C)c1cc2c(c(O)c1O)[C@@]1(C(=O)O)CCCC(C)(C)[C@@H]1CC2 |  | C57BL/6 mice, subcutaneous lung adenocarcinoma | iv, 3 mg/kg every two days, six doses, 48 h |  | tumour growth inhibition | 46.3% |
| COc1ccccc1-c1n[nH]c2nc(NC3CCN(C(=O)Cc4ccc(F)cc4F)CC3)ncc12 | bead binding, competition bead pull-down, refers to: LINJ.27.2350 | Leishmania donovani extract | 10 µM | baseline: vehicle | relative abundance | 0.94 |
| CCN(Cc1ccccc1)C(=O)CCc1nc(CN2CCN(C(=O)Cc3ccc(OC)c(OC)c3)CC2)no1 | current clamp | DRG neurons, naive rat | 3 µM |  | action potential amplitude | 85.5 ± 10.4 mV |
| COc1cccc(OCCN2CCC[C@H](CN3CCc4cc(OC)c(OC)cc4CC3=O)C2)c1 |  | C57BL/6J mouse, female, stress-naive | intraperitoneal, 5 mg/kg, 14 d post-dose | baseline: before dosing | time in interaction zone, target present | no effect |
| O=C(O)c1ccc(-c2nc(-c3ccccc3Cl)c3sccn23)cc1 |  | C57BL/6 mouse 5-FU stress | dose not given, nadir days 3 and 4 |  | platelet recovery | 79.4% and 95.4% and 69.1% and 50.3% and 79.6% and 55.2% and 73% and 91.4% |
| Cc1ccc(S(=O)(=O)N2CC2C(=O)N(C)C)cc1 (stereo not drawn) |  | mouse, Lewis lung carcinoma | intraperitoneal, 170 mg/kg, 16 doses, day 13 |  | tumour volume | 790 mm3 |
| CC(=O)NCSC[C@H](NC(=O)[C@@H]1CCCN1C(=O)[C@H](C)NC(=O)[C@@H](NC(=O)CNC(=O)[C@@H](NC(=O)[C@H](Cc1c[nH]c2ccccc12)NC(=O)[C@H](C)NC(=O)CNC(=O)[C@H](CO)NC(=O)[C@H](C)NC(=O)[C@@H]1CCCN1C(=O)[C@H](Cc1c[nH]c2ccccc12)NC(=O)[C@H](C)NC(=O)[C@H](C)NC(=O)[C@@H](N)Cc1ccc(O)cc1)[C@@H](C)O)[C@@H](C)O)C(=O)N[C@@H](CO)C(=O)N[C@@H](C)C(=O)NCC(=O)N[C@H](C(=O)NCCOCCOCCOCCOCCOCCOCCOCCOCCOCCOCCOCCOCCC(=O)N[C@@H](CS)C(N)=O)[C@@H](C)O | phage binding | NSCLC cell line panel | selectivity at least 20 |  | number of cell lines | 8 |
| O=c1n(CCNCCOS(=O)(=O)c2ccccc2)c(=O)n(S(=O)(=O)c2ccccc2)c(=O)n1S(=O)(=O)c1ccccc1 | DPPH scavenging |  | 31.25 µg/mL |  | inhibition | 39.1% |
| COC(=O)[C@@H](NC(=O)c1nn(Cc2ccc(F)cc2)c2cc(OCCCCNC(=N)N)ccc12)C(C)(C)C | mechanical allodynia | mouse SNI neuropathic pain model | intraperitoneal, dose not given |  | time to peak effect | 1 h |
| Cc1ccc(C2=CC(C)(C)Oc3ccc(-c4ccc(-c5ccc(C(=O)O)cc5)[nH]4)cc32)cc1 |  | CD1 mouse male | dose not given, after end of dosing |  | time to fertility recovery | ≤ 6 weeks |
| CCCCCC1=C(NCC)C(=O)C(C/C=C(\C)CCC=C(C)C)=C(O)C1=O | RNA-Seq, refers to: Ifit1 mRNA | mice, AAV9-A53T α-synuclein lesion, lesioned striatum | oral, dose not given | baseline: vehicle-treated lesioned mice | log2 fold change | 1.48 |
| CC(C)[C@H](NC(=O)[C@H](CCCNC(=N)N)NC(=O)[C@@H]1CCCN1C(=O)[C@@H](NC(=O)[C@H](C)NC(=O)[C@H](Cc1ccc(O)cc1)NC(=O)[C@H](CCC(N)=O)NC(=O)[C@H](CCCCN)NC(=O)[C@H](CCCNC(=N)N)NC(=O)[C@@H]1CCCN1C(=O)[C@H](CCC(=O)O)NC(=O)[C@@H](NC(=O)[C@H](C)N)[C@@H](C)O)[C@@H](C)O)C(=O)N[C@@H](Cc1ccccc1)C(=O)N[C@@H](Cc1c[nH]c2ccccc12)C(=O)N[C@H](C(=O)N[C@@H](CC(=O)O)C(=O)N[C@@H](C)C(=O)N1CCC[C@H]1C(=O)NCC(=O)NCCOCCOCCOCCOCCOCCOCCOCCOCCOCCOCCOCCOCCC(=O)N[C@@H](CS)C(N)=O)[C@@H](C)O | phage binding | NSCLC cell line panel | selectivity at least 20 |  | number of cell lines | 6 |
| Cc1cc(NC(=O)C(=O)N2C[C@@H](C)CC[C@@H]2c2ccc3scnc3c2)cnc1N |  | mouse, U-87 MG MTAP-null orthotopic glioblastoma | oral, dose not given |  | median survival increase | 3 fold |
| O=S(=O)(N[C@H]1CCO[C@@H](C2c3ccccc3CCc3ccccc32)C1)c1ccc(OC(F)(F)F)cc1 |  | mouse, orthotopic D425 medulloblastoma | oral gavage, 75 mg/kg twice daily |  | median survival | 14 days |
| CC(C)C[C@H](NC(=O)[C@H](CC(=O)O)NC(=O)CNC(=O)[C@@H](N)CCCNC(=N)N)C(=O)N[C@@H](C)C(=O)N[C@H](C(=O)N[C@@H](CC(C)C)C(=O)N[C@@H](CCCNC(=N)N)C(=O)N[C@@H](CCC(N)=O)C(=O)N[C@@H](CC(C)C)C(=O)N[C@@H](C)C(=O)N[C@@H](CCC(N)=O)C(=O)N[C@@H](CCC(=O)O)C(=O)N[C@@H](CC(=O)O)C(=O)NCC(=O)N[C@H](C(=O)N[C@H](C(=O)NCC(=O)N[C@H](C(=O)N[C@@H](CCCNC(=N)N)C(=O)NCCOCCOCCOCCOCCOCCOCCOCCOCCOCCOCCOCCOCCC(=O)N[C@@H](CS)C(N)=O)C(C)C)C(C)C)C(C)C)[C@@H](C)O | phage binding | NSCLC cell line panel | selectivity at least 20 |  | number of cell lines | 18 |
| O=C(NCc1cc(F)cc(F)c1)[C@@]1(O)CCN(c2ccc3[nH]ccc3c2)C1=O |  | sample H PDX mouse | dose not given, RTV endpoint 500% |  | median survival time | 24 days |
| COc1ccccc1-c1n[nH]c2nc(N[C@H]3CC[C@H](NS(=O)(=O)CC(C)C)CC3)ncc12 | bead binding, competition bead pull-down, refers to: LINJ.36.0600 | Leishmania donovani extract | 10 µM | baseline: vehicle | relative abundance | 0.41 |
